Results of several laboratories.
Parts stem from different laboratories: compare values within a part only.
Sequence of UniProt P36894 (whole entry, looked up): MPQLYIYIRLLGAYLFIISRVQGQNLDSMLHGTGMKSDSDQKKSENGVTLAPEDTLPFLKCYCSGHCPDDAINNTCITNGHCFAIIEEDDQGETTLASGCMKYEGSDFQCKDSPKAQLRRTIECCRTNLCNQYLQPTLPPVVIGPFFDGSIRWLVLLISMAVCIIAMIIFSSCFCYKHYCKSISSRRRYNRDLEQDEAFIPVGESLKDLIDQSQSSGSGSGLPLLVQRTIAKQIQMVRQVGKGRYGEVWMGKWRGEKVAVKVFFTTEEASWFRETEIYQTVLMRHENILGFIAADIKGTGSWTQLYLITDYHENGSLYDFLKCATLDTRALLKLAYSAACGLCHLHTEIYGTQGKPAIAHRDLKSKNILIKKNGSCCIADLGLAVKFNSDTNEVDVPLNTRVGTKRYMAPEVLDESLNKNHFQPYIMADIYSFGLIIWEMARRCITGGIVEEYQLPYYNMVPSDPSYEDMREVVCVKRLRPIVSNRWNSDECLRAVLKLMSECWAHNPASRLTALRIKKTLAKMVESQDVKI
Sequence of UniProt O94768 (whole entry, looked up): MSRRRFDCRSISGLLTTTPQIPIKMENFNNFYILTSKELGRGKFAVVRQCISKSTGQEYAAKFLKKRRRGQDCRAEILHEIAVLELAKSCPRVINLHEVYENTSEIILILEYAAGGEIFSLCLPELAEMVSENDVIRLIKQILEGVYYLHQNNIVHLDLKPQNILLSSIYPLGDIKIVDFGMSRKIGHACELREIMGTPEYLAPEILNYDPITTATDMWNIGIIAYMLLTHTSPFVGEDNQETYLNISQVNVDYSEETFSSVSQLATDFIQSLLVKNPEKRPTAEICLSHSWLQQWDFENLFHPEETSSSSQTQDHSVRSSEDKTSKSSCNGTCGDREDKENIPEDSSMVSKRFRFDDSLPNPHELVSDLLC
Sequence of UniProt P57078 (whole entry, looked up): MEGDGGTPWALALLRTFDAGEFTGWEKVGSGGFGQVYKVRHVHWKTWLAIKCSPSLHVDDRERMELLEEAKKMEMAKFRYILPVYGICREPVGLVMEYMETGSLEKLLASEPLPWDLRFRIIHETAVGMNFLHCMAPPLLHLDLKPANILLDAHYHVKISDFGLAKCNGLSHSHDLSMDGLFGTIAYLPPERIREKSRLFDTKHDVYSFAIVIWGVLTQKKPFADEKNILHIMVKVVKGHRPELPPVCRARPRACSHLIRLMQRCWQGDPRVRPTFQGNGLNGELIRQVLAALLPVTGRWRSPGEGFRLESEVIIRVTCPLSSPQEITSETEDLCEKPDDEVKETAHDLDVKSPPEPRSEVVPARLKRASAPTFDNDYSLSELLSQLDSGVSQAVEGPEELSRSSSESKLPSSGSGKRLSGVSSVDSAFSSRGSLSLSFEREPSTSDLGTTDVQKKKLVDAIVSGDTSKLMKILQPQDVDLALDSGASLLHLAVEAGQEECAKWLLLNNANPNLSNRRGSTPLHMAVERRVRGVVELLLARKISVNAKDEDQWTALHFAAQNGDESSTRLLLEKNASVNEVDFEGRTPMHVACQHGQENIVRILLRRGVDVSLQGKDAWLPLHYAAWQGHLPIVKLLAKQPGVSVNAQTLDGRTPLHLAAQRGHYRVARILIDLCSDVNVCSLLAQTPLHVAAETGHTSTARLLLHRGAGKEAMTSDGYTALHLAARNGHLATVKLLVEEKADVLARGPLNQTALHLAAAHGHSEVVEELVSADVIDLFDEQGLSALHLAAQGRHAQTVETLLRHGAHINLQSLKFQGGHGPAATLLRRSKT
Sequence of UniProt Q00536 (whole entry, looked up): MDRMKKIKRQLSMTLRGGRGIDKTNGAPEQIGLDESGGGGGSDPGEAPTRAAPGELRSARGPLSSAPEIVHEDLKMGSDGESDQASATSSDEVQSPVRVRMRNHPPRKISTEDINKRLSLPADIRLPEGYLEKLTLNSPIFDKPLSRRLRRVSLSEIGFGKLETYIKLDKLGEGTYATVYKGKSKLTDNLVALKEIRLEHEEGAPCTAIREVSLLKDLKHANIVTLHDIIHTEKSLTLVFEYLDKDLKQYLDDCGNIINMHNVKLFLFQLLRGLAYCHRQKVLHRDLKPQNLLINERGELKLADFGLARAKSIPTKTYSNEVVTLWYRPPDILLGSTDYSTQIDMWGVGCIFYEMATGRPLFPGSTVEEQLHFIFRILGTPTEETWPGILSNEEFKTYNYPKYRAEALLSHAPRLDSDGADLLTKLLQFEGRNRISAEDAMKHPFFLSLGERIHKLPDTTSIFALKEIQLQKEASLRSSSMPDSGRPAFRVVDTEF
Sequence of UniProt Q9HAZ1 (whole entry, looked up): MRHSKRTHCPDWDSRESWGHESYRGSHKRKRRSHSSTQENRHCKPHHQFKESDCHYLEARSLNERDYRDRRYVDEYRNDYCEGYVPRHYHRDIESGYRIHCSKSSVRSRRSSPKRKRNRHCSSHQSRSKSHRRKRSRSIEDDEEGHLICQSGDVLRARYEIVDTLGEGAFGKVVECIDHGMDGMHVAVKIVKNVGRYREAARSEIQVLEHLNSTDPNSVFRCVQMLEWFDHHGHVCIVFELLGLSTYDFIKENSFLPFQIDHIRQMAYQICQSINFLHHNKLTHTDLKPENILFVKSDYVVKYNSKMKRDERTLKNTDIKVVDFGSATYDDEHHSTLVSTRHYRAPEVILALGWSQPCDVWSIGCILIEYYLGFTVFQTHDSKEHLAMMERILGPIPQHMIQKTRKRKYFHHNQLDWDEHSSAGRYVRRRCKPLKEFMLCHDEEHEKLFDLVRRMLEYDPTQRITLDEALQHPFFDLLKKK

Block 1
Target: Prothrombin, mature alpha-thrombin (F2, Homo sapiens, UniProt P00734)
Method: aptamer microarray, sandwich
Form: DNA with 2'F-ANA
Matrix: in vitro
Concentration: 200 nM
Setting: whole 15-mer aptamer, many near background
Together with: Cy3 exosite-II aptamer, 400 nM
Direction: higher = stronger binding
Oligonucleotide: GGTTGGTGTGGTTGG
| Modification | mean fluorescence intensity [a.u.] |
| --- | --- |
| 2'F-ANA at 1 3 5 6 7 13 14 | 96.5 |
| 2'F-ANA at 2 6 7 11 12 13 14 | 138 |
| 2'F-ANA at 1 4 5 7 8 9 10 12 15 | 49.7 |
| 2'F-ANA at 2 3 4 7 9 10 12 13 14 | 195 |
| 2'F-ANA at 2 3 4 5 6 7 9 12 13 14 15 | 49.2 |
| 2'F-ANA at 2 4 7 8 9 10 13 15 | 83.5 |
| 2'F-ANA at 1 3 4 7 8 9 11 12 15 | 363 |
| 2'F-ANA at 4 10 13 15 | 88.8 |

Block 2
Target: Myosin light chain kinase, smooth muscle (MYLK, Homo sapiens, UniProt Q15746)
Sequence of UniProt Q15746 (whole entry, looked up): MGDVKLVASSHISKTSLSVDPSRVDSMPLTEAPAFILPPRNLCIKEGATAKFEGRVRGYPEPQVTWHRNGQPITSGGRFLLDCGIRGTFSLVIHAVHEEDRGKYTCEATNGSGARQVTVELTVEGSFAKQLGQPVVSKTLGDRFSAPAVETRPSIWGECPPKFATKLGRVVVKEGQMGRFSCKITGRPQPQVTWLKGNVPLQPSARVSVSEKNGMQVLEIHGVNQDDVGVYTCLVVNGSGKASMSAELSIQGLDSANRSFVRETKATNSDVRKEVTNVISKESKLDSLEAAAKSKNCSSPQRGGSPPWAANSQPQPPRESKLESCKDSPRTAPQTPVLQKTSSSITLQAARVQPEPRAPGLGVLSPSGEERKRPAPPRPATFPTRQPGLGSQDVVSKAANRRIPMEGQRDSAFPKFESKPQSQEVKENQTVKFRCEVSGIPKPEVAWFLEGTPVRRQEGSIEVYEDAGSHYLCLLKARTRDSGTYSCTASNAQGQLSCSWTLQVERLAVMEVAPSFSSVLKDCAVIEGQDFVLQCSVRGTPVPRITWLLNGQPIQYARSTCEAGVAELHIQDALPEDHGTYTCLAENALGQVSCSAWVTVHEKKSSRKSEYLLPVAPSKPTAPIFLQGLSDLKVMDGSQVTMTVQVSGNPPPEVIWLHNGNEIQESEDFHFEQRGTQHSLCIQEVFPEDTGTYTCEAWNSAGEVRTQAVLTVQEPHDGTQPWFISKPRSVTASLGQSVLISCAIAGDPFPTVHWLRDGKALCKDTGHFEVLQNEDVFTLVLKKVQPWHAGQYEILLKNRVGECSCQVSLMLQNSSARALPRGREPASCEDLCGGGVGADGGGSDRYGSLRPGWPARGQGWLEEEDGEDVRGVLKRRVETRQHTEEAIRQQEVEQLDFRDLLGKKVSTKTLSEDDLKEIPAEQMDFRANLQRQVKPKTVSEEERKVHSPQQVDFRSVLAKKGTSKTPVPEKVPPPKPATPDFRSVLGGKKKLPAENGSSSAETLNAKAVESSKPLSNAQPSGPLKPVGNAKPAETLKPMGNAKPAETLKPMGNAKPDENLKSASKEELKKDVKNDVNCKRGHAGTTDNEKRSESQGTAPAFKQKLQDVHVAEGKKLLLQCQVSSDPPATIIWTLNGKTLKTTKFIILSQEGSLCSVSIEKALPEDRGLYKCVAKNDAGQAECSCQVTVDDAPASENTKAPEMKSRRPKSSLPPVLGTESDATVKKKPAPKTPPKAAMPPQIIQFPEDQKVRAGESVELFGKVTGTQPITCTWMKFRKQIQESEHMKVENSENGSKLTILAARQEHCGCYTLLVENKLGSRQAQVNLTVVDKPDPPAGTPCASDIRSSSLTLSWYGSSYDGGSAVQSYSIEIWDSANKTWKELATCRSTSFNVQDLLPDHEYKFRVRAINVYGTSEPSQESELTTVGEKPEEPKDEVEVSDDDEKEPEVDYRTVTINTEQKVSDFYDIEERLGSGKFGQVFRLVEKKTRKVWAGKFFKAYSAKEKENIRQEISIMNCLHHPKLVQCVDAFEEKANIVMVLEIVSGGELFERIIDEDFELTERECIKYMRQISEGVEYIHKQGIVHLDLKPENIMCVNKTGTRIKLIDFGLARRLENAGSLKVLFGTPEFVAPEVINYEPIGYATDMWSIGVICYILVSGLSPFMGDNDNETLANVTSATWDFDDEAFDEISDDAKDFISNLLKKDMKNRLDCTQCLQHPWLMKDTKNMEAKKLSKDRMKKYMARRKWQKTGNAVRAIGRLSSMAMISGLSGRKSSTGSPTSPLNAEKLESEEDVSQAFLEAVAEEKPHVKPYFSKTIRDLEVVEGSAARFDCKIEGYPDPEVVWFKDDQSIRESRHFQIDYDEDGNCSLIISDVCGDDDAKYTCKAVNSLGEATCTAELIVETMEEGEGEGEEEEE
Observed: enzyme activity
Action: inhibitor
Concentration: 0.5 µM
Relative to: control
| Structure (SMILES) | remaining activity [%] |
| --- | --- |
| Cc1cccc(-c2[nH]c(C(C)(C)C)nc2-c2ccc3c(c2)OCO3)n1 | 105 |
| OCC(O)CCON=C1C(c2c(O)[nH]c3ccccc23)=Nc2ccccc21 (stereo not shown) | 32.3 |
| Cn1sc(=O)n(Cc2ccccc2)c1=O | 94.5 |
| O=C1NC(=O)C(c2cn(CCCn3ccnc3)c3ccccc23)=C1Nc1ccccc1 | 81.6 |
| O=S(=O)(c1cccc2cnccc12)N1CCCNCC1 | 97.4 |
| CO[C@H]1C[C@@H]2CC[C@@H](C)[C@@](O)(O2)C(=O)C(=O)N2CCCC[C@H]2C(=O)O[C@H]([C@H](C)C[C@@H]2CC[C@@H](O)[C@H](OC)C2)CC(=O)[C@H](C)/C=C(\C)[C@@H](O)[C@@H](OC)C(=O)[C@H](C)C[C@H](C)/C=C/C=C/C=C/1C | 102 |
| CCOC(=O)c1c(C)[nH]c(/C=C2\C(=O)Nc3ccccc32)c1C | 94.8 |
| N#CC(C#N)=C(N)/C(C#N)=C/c1ccc(O)cc1 | 101 |
| COc1cc2ncnc(Nc3ccc(Oc4ccccc4)cc3)c2cc1OC | 105 |
| O=C1NC(=O)C(c2cn(CCCO)c3ncccc23)=C1c1cnccn1 | 74 |
| O=C(Nc1cccc(Nc2cc(Nc3cccc(C(F)(F)F)c3)ncn2)c1)C1CC1 | 99 |
| O=C(O)c1ccc2c3c1cccc3c(=O)n1c3ccccc3nc21 | 89.8 |
| COc1cc2ncnc(Nc3ccc(F)c(Cl)c3)c2cc1OCCCN1CCOCC1 | 89.7 |
| NCCNc1ncc(C(N)=O)c(Nc2cccc(C(F)(F)F)c2)n1 | 96.7 |
| COc1cc2nccc(Oc3ccc(NC(=S)NC(=O)c4ccccc4C)cc3)c2cc1OC | 104 |

Block 3
SMILES: O=C(N[C@H]1CCCCC/C=C\C2C[C@@]2(C(=O)O)NC(=O)[C@@H]2C[C@@H](Oc3ccncc3)CN2C1=O)OC1CCCC1 (stereo partly shown)
Method: competition with immobilised ligand
Concentration: 1 µM
| target | assay | remaining binding |
| --- | --- | --- |
| MELK (Homo sapiens, UniProt Q14680) | binding | 84% |
| HIPK1 (Homo sapiens, UniProt Q86Z02) | binding | 86% |
| MAK (Homo sapiens, UniProt P20794) | binding | 82% |
| PAK4 (Homo sapiens, UniProt O96013) | binding | 99% |
| FES (Homo sapiens, UniProt P07332) | cell-free assay | 100% |
| CLK4 (Homo sapiens, UniProt Q9HAZ1) | binding | 93% |
| STK17B (Homo sapiens, UniProt O94768) | cell-free assay | 69% |
| CDKL3 (Homo sapiens, UniProt Q8IVW4) | binding | 99% |
| CSNK2A1 (Homo sapiens, UniProt P68400) | cell-free assay | 83% |
| CSF1R (Homo sapiens, UniProt P07333) | cell-free assay | 95% |
| SYK (Homo sapiens, UniProt P43405) | cell-free assay | 100% |
| Tyrosine-protein kinase ABL1, phosphorylated (ABL1, Homo sapiens, UniProt P00519, Y253F) | binding | 100% |
| PIKFYVE (Homo sapiens, UniProt Q9Y2I7) | binding | 100% |
| HASPIN (Homo sapiens, UniProt Q8TF76) | binding | 100% |
| EPHB6 (Homo sapiens, UniProt O15197) | cell-free assay | 89% |
| TEC (Homo sapiens, UniProt P42680) | binding | 100% |
| CDK16 (Homo sapiens, UniProt Q00536) | binding | 83% |
| PRKD2 (Homo sapiens, UniProt Q9BZL6) | binding | 100% |
| DCLK3 (Homo sapiens, UniProt Q9C098) | binding | 100% |
| RIPK4 (Homo sapiens, UniProt P57078) | binding | 94% |
| BMPR1A (Homo sapiens, UniProt P36894) | binding | 100% |

Block 4
Target: Centromere-binding protein 1, full length, N-terminal tag (CBF1, Saccharomyces cerevisiae, UniProt P17106, residues 1-351)
Sequence of UniProt P17106 (whole entry, looked up): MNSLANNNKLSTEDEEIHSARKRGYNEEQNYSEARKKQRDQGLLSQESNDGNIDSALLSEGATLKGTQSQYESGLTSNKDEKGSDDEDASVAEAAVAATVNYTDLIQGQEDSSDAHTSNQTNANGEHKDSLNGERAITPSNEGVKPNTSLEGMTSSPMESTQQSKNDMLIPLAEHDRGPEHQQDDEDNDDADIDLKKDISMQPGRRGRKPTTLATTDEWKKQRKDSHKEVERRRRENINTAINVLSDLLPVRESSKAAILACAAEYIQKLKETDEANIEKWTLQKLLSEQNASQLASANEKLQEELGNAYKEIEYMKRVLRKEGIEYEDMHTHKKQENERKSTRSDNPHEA
Method: protein-binding microarray
Form: double-stranded DNA, one strand shown
Matrix: in vitro
Concentration: 0.8 µM
Setting: whole 60-bp probe, no competitor
Direction: higher = stronger binding
| Oligonucleotide | fluorescence intensity [a.u.] |
| --- | --- |
| GAAACCGATCCCAATGGTGACATGCAAAGAAAATAGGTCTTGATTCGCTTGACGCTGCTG | 572 |
| GAATAGAAATTTAAACACGTTTATTTAGCTGCTTAGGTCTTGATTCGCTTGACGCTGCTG | 575 |
| GAATCAGTTTCTTAGCTGATGATGAGTGCTGTCTAGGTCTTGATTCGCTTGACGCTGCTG | 539 |
| CTAGTTAGAGATAGTGATGTTAGAAGACTTACCTTCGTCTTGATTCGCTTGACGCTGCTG | 485 |
| CTATCTCGAAAAGAGCACGTCGAAACAGCGGTATTCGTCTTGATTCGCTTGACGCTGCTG | 532 |
| GAAAATAAAGCACGTGACTCAATAATACGACGGTAGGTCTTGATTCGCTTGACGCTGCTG | 24800 |
| GAAATAAACAAGTATAACCACCTGATTGAATTGTAGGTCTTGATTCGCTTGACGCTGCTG | 1090 |
| CTACAGAATAAGTCACACATGATATAAAAAGAATTCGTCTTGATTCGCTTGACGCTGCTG | 1380 |
